Measured values of several laboratories.
Numbered parts are unrelated; each lists some results of a single study.

Sample 1
Target: TAR DNA-binding protein 43, full length, His tag (TARDBP, Homo sapiens, UniProt Q13148, residues 1-414)
Technique: RNA Bind-n-Seq
Form: RNA
Matrix: in vitro
Concentration: 20 nM
Notes: 6-mer, flanks averaged, single round
Together with: 150 mM LiCl
Baseline: input library
Reading: higher = stronger binding
| Oligonucleotide | 6-mer enrichment (R) |
| --- | --- |
| UGCGUA | 1.07 |
| AGUGUA | 1.21 |
| UCUAAG | 0.84 |
| AUUGAU | 0.908 |
| AACAAC | 0.92 |
| CUGUCG | 0.929 |
| CUUCUC | 0.892 |
| UAGGUA | 0.98 |
| UAUCUU | 0.984 |
| UGUAUG | 1.87 |
| ACCCAA | 0.91 |
| GGACAC | 0.98 |
| UAUCGA | 0.823 |
| AUACUC | 0.84 |
| CUCACA | 0.835 |
| AGCAGG | 1.01 |

Sample 2
Target: Ras GTPase-activating protein-binding protein 1, full length (G3BP1, Homo sapiens, UniProt Q13283)
Chain of UniProt Q13283 (whole entry, looked up): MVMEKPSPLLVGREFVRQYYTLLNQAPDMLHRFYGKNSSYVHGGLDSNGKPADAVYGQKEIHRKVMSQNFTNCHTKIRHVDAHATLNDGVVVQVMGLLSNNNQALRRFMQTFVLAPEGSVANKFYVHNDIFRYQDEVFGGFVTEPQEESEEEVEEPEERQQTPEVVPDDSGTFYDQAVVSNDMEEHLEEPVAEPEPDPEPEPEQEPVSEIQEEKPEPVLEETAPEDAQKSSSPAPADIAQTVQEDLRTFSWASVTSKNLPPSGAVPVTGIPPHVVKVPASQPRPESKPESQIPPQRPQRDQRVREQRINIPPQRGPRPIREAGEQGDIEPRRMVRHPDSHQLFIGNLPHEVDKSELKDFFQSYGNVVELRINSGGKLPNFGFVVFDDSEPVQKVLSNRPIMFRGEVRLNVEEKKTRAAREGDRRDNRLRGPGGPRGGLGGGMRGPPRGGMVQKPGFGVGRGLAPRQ
Technique: RNA Bind-n-Seq
Form: RNA
Matrix: in vitro
Concentration: 200 nM
Notes: whole 134-nt RNA, ends assumed
Together with: 150 mM LiCl
Baseline: input library
Reading: higher = stronger binding
Library: 7-deaza-guanosine replaces G
Shared flanks, not repeated: GGGAGUUCUACAGUCCGACGAUC … UGGAAUUCUCGGGUGUCAAGG
| Oligonucleotide | log2 enrichment |
| --- | --- |
| UAACUUUAGAGGAUGAUCUGAUGGAUAUGGCAGUGGACGUGGAUUUGGGGAUGGCUAUAAUGGGUAUGGAGGAGGACCUGGAGGUGGCAA | 0.00761 |
| ACCAUGCAGGUGGGCAUCUUUGGGAAGUGGGGCAAGGGGGGGAUAGGGAGGGGGGUUACACUUUGGGAACAGGUGGUCCCAGGUCGUUUC | 0.143 |
| UGGGAGGUGGAUUUUGUUUAUUUUUUUAGCUCAUUUCCAGGGGUGGGAAUUUUUUUUUAAUAUGUGUCAUGAAUAAAGUUGUCUUUGAAA | -0.2 |
| UUGCUUCAAGAAGAUCCCUAAGCUGUAGAACAUUUUAACGUUGAUGCCACAACGCAGAUUGAUGCCUUGUAGAUGGAGCUUGCAGAUGGA | 1.27 |
| GCAGGAAGUAAAAACAAAUGGAAAUGCUUCGGAUAGUGGCAGGGGUGGGGGUUGCUAAGGAAAGGGUGGGAUGGGAGUGGGUAAAAAAUU | -0.099 |
| CUCAAGUCCUGUGCUACACAUCGUAUGUACCGAAUCGGUGGUUUUUGGAAAGGAAAGUAUUAUGUUACGCCGUUCGGAUCUGCACUUCCA | 0.648 |
| UUGGAAGAGACCAGUGAAAUUCGAUCUGACUUGGAGCAGUUAGACCACGAGGUUAAGGAGGCUCAGACACUGUGCGAUGAACUCUCAGUG | 0.229 |
| CAAGUCCUGUGCUACACAUCGUAUGUACCGAAUCGGGGAAAGGGAAAGGGAAAGGAAAGUAUUAUGUUACGCCGUUCGGAUCUGCACUUC | -0.335 |

Sample 3
Target: Interferon regulatory factor 3, full length, phosphomimetic (IRF3, Homo sapiens, UniProt Q14653, residues 1-427, S386D/S396D/S398D/S402D/T404D/S405D)
Chain of UniProt Q14653 (whole entry, unmodified, looked up): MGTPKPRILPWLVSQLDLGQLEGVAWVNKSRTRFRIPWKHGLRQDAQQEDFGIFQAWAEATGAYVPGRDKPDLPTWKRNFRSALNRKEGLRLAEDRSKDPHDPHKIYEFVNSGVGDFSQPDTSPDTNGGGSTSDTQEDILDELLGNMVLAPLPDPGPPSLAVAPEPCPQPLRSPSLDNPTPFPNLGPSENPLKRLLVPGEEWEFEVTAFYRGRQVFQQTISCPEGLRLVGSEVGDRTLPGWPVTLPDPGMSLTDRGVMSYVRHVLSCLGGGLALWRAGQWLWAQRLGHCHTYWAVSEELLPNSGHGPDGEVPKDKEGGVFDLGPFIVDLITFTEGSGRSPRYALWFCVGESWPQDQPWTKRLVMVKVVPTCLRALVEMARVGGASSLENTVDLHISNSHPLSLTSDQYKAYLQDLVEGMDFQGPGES
Technique: protein-binding microarray
Form: double-stranded DNA, one strand shown
Matrix: in vitro
Concentration: 2540 nM top
Notes: 60-bp whole probe
Together with: salmon DNA 0.4 mg/ml
Baseline: random background probes
Reading: higher = stronger binding
Shared flanks, not repeated: GCCTAGCAC … GTCTTGATTCGCTTGACGCTGCTG
| Oligonucleotide | fitted relative affinity [z-score] |
| --- | --- |
| TGGCCTATTTATATGAGATGGTGCTAG | 0.174 |
| TCAACTTTCTTTAACTCACTGTGCTAG | 1.25 |
| GATGGCAGTGGAAATTTTACGTGCTAG | -0.84 |
| TTAGATTTCGGTCTCGGTTAGTGCTAG | 4.88 |
| TCAGGGCTACCTCTCTTACTGTGCTAG | -0.927 |
| TTAGGTTCCGGTTTGGGTTAGTGCTAG | 3.72 |
| CTAGGTATCGACTATCGGTTAGTGCTA | 0.556 |
| TTAGATATCAGTTCCGATTAGTGCTAG | 2.65 |
| TTAGGTTTCGACTATCGATTAGTGCTA | 2.48 |
| GACGGGCTCCTTCTCCTGACGTGCTAG | 2.11 |
| CGGAATTTCCCTCTGCTCCTGTGCTAG | 2.13 |
| TTAGATTTCCGACTGGATTAGTGCTAG | 1.43 |
| TTAGGACTGCTTATCCTTAAGTGCTAG | 0.000444 |
| GACGATCTCAGTTTCGAGTCGTGCTAG | 3.01 |
| TTAGGTTTCGACTTTCGATTAGTGCTA | 3.7 |
| TTAGGACTGGTGACTGGGTTAGTGCTA | -1.09 |
| TAAGATCTCAGTCTCGATTAGTGCTAG | 0.607 |
| GACGAACGGGGGTATCGAGACGTGCTA | -0.106 |

Sample 4
Target: RNA binding protein fox-1 homolog 2, RRM domain, GST-SBP tag (RBFOX2, Homo sapiens, UniProt O43251-10, residues 100-194)
Technique: RNA Bind-n-Seq
Form: RNA
Matrix: in vitro
Concentration: 365 nM
Notes: natural RNA segment, single round, ends assumed
Baseline: no-protein control
Reading: higher = stronger binding
Shared flanks, not repeated: GGGAGUUCUACAGUCCGACGAUC … UGGAAUUCUCGGGUGCCAA
Construct (chain): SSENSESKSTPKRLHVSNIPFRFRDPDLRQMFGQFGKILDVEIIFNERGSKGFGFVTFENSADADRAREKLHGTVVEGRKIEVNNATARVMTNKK
| Oligonucleotide | RBNS enrichment (R) |
| --- | --- |
| AUUUUACUCCUGGAUGUAUUGAAUGCCCCUUGAGCUUUAUGAGAUACGAGUCCACAUGGAUAAAAUGUUAGAGAGUGGAGUUCUACAGAGGAUUCCAGGAAGAGGCCAUG | 1.57 |
| ACGUUGGAUUUUCGUACACUUCCUUAUACCUUACAUCUUUUAAUGGUCGUUGACUGCUUCACACUUACCUUGCUGAACAUGAACUUUCAGACCUAGAAGUCACUUUUAUG | 0.718 |
| CCUCCCAGCGCUCUGGGAGCCACGCCUAUGCCCUGCCCUUCCUCAGGGCCCCUGGGGAUCUUGCCCCCUUUGACCUUCCCCAAAGGAUGGUCACACACCAGCACUUUAUA | 0.241 |
| ACUCUUUUAAGAUUCAGAGGGUACAGAACAACCUCUAUUAUUUCAGAGUACCCUUGAGAAUUGAAAUGUAUUUCGAUUAGUUGUCUUUAAUUAGCUAGCUAGAGUCAGUU | 0.37 |
| CUAAAAGAGCCUAAGCAGGAAAAAUCCUAGGGUGAGGCAAUGUUUGCAUGAUGAGAGAGGAAGGGUUUGCCAUAGAGAGCUGAAAUGGGGAUUUAGACUGAUGUGUGCAU | 56.3 |
| UUAGGGAUUGUUUAGAAAACAAAGAAAGAGCCAAUUAAAUUUUUUAGUUUUUGAAAUUUUUAUUUAUAUGUAUACUUAGAUGAGUAUUUUAAGCUGUCGACCUUUAGUUU | 1.64 |
| AGUGACCCUGUUUUGUGGCAUUCAUGCAAAACAUGCUGAGGGCUUUGUUCAUCUGGUCAUCGUGUCCAAAUUUCAGUCAUGUUUGUAGCAAGAUUUUGGAAGCAUUCAUA | 2.04 |
| UUCUUGGAUUUUUAGGUGUAAUUUGCCAAGGUCUUGGAAUCUUUUUCCCAAGAGCAUGAUAGAAAGAUCCCUGGACUCUGCUGUUACAAGCGUGGACUCUUGUCUCACCU | 3.02 |

A few entries again (sample 1):
| Oligonucleotide | 6-mer enrichment (R) |
| --- | --- |
| CUUCUC | 0.892 |
| AGCAGG | 1.01 |
| GGACAC | 0.98 |
| UAUCUU | 0.984 |
